# Measurements collected from several papers.
# Each line is one published result; not all experiments were run side by side. “And” joins repeats or separate records; there may be more than shown. Numbers after ± are the reported error.
SMILES,test system,conditions,tissue uptake
O=C(NCC1OC2CCC=CCCC2O1)c1ccc(COCCOCCOCC[18F])cc1 (centres unmarked),"healthy female BALB/c nude mice, muscle","intravenous, 7.4 MBq per mouse, 15 min",2.5 ± 0.2 %ID/g
N#C[C@@H]1CCCN1C(=O)CNC(=O)c1ccnc2ccc(OCCCN3CCN(C(=O)CCc4ccc5c(c4)CN4CCN(Cc6cc(CCC(=O)O)ccc6O)CC(=O)[O][Al-]([18F])([O]C(=O)C4)[O]5)CC3)cc12 (some centres unmarked),"BALB/c nude mice, U-87 MG xenograft, heart","1 h, blocking, added: DOTA-FAPI-04 40 nmol/mouse co-injected",0.47 ± 0.23 %ID/g
CCCC[C@H](NC(=O)COCCOCCNC(=O)CN1CCN(CC(=O)O)CCN(CC(=O)O)CC1)C(=O)N[C@H]1CC(=O)NCCCC[C@@H](C(N)=O)NC(=O)[C@H](Cc2c[nH]c3ccccc23)NC(=O)[C@H](CCCNC(=N)N)NC(=O)[C@@H](Cc2ccccc2)NC(=O)[C@H](Cc2c[nH]cn2)NC1=O [fluorine-18 labelled],"C57 mice B16-F10 melanoma, lung","intravenous, 0.37 MBq, 1 h",1.07 ± 0.32 %ID/g
COc1ccc2c(c1)C(C)(C)C(/C=C/C1=C(Oc3ccc(C(=O)NCCCCOc4cc(CN(Cc5ccccn5)Cc5ccccn5)cc(CN(Cc5ccccn5)Cc5ccccn5)c4)cc3)C(=C/C=C3/N(CCCCS(=O)(=O)[O-])c4ccc(OC)cc4C3(C)C)CCC1)=[N+]2CCCCS(=O)(=O)[O-].O=[N+]([O-])[O-].O=[N+]([O-])[O-].[99Tc+].[C-]#[O+].[C-]#[O+].[C-]#[O+].[Zn+2],"healthy BALB/c mice, spleen",12 h,10.8 %ID/g and 6.77 %ID/g and 7.83 %ID/g and 11.6 %ID/g
CCCC[C@H](NC(=O)CCCCCCCNC(=O)CN1CCN(CC(=O)O)CCN(CC(=O)O)CC1)C(=O)N[C@H]1CC(=O)NCCCC[C@@H](C(N)=O)NC(=O)[C@H](Cc2c[nH]c3ccccc23)NC(=O)[C@H](CCCNC(=N)N)NC(=O)[C@@H](Cc2ccccc2)NC(=O)[C@H](Cc2c[nH]cn2)NC1=O [fluorine-18 labelled],"C57 mice, B16/F10 melanoma, intestines","intravenous, 0.37 MBq, 2 h",1.54 ± 0.04 %ID
O=C(NCC1OC2CCC=CCCC2O1)c1ccc([18F])nc1 (centres unmarked),"healthy female BALB/c nude mice, muscle","intravenous, 7.4 MBq per mouse, 120 min",0.3 ± 0.02 %ID/g
Cc1cc(C)n(CCN(CCN)CCCCCCNC(=O)[C@@H](N)Cc2c[nH]cn2)n1.[99Tc+].[C-]#[O+].[C-]#[O+].[C-]#[O+],"BALB/c nude mice, A549 xenograft, pancreas","intravenous, 24 h",0.37 ± 0.06 %IA/g
COc1ccc(Nc2nc(Nc3ccc(OCCOCC[18F])cc3)ncc2Br)cc1,"ICR mice, S180 tumour-bearing, muscle","intravenous, 370 kBq, 15 min",2.25 ± 0.2 %ID/g

# For quick reference, copied from above:
SMILES,test system,conditions,tissue uptake
O=C(NCC1OC2CCC=CCCC2O1)c1ccc(COCCOCCOCC[18F])cc1 (centres unmarked),"healthy female BALB/c nude mice, muscle","intravenous, 7.4 MBq per mouse, 15 min",2.5 ± 0.2 %ID/g
